Measured values collected from several papers.
Every numbered part comes from another study and shows a few of its results, in no order.
Chain of UniProt Q9NYY3 (whole entry, looked up): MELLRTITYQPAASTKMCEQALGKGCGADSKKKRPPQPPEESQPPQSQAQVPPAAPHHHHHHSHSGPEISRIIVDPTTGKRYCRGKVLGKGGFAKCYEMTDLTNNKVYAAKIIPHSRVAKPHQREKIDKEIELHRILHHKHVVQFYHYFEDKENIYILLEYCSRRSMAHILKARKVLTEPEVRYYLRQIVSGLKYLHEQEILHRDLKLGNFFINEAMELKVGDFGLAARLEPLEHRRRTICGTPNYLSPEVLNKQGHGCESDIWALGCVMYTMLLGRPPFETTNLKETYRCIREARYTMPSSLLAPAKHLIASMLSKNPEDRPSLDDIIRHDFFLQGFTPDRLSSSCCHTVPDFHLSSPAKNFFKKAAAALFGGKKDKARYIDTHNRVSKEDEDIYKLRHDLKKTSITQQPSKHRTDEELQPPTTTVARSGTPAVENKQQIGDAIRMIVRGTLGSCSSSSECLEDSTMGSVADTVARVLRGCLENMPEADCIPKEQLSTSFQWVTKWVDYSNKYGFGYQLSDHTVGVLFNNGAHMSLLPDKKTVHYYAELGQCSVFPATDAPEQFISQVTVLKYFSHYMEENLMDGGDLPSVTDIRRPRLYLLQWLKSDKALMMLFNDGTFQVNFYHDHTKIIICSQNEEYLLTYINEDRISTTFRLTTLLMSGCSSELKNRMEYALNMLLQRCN

Study 1 — method: protein-binding microarray; form: double-stranded DNA, one strand shown; sample: in vitro; concentration: not given; reading: higher = stronger binding
Target: Transcription factor Sp1 (SP1, Homo sapiens, UniProt P08047, residues 1-785, full length assumed)
Chain of UniProt P08047 (whole entry, looked up): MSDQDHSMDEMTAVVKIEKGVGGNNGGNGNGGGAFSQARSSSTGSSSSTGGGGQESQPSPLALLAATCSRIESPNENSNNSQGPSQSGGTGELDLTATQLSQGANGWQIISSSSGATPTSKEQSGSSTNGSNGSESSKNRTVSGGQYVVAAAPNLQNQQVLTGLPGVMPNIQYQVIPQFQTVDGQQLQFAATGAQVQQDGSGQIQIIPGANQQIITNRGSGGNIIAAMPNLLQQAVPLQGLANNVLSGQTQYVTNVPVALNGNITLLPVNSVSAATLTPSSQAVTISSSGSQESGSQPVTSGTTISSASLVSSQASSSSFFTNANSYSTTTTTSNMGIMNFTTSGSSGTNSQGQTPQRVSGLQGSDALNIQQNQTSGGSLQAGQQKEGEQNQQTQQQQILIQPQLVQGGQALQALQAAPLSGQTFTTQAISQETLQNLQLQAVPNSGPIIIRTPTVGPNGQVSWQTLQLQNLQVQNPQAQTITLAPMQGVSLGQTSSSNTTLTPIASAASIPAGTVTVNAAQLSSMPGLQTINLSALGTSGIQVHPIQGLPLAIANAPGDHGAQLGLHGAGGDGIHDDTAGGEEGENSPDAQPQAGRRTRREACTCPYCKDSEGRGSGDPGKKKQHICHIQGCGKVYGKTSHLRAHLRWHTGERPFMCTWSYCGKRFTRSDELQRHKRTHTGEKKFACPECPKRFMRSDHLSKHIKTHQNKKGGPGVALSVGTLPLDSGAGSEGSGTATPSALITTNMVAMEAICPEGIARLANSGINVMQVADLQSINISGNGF
Setting: k-mer, scored over probes, only values ≥0.25
`ACCATTAA` gave an E-score of 0.304.
`ACCATATA` gave an E-score of 0.295.
With `ACACGTGT` the E-score was 0.259.
The E-score of `CATATGGG` is reported as 0.333.
`GACCCCTC` gave an E-score of 0.277.
With `GGGGCGGA` the E-score was 0.491.
With `AGTAGGGG` the E-score was 0.305.
`ACCATCCC` gave an E-score of 0.255.

Study 2 — method: aptamer microarray, sandwich; form: DNA with 2'F-ANA; sample: in vitro; concentration: 200 nM; added: Cy3 exosite-II aptamer, 400 nM; reading: higher = stronger binding; strand: GGTTGGTGTGGTTGG
Target: Prothrombin, mature alpha-thrombin (F2, Homo sapiens, UniProt P00734)
Setting: whole 15-mer aptamer, many near background
`2'F-ANA at 1 5 6 10 14 15`: “mean fluorescence intensity” 69.6 a.u.
`2'F-ANA at 1 3 6 8 11 14 15` — result for “mean fluorescence intensity”: 84.1 a.u.
`2'F-ANA at 6 7 8 10 11 14 15`: “mean fluorescence intensity” 99.8 a.u.
For `2'F-ANA at 2 4 5 6 9 11 12`, “mean fluorescence intensity” read 117 a.u.
For `2'F-ANA at 2 3 5 6 7 8 9 12 14`, “mean fluorescence intensity” read 55.3 a.u.
`2'F-ANA at 2 3 4 5 6 8 9 10 12 13`: “mean fluorescence intensity” 52.8 a.u.
Under “mean fluorescence intensity”, `2'F-ANA at 3 4 5 6 10 13 15` is recorded as 44.4 a.u.
`2'F-ANA at 2 5 8 9 10 11 15`: “mean fluorescence intensity” 48.9 a.u.

Study 3 — method: competition protein-binding microarray; form: double-stranded DNA, one strand shown; sample: in vitro; concentration: 2 µM; added: Cbf1 competitor, 0.05 µM; reading: higher = stronger binding
Target: Phosphate system positive regulatory protein PHO4, full length, GST-tagged (PHO4, Saccharomyces cerevisiae, UniProt P07270, residues 1-312)
Setting: whole 60-bp probe, lowest competitor level
Construct (chain): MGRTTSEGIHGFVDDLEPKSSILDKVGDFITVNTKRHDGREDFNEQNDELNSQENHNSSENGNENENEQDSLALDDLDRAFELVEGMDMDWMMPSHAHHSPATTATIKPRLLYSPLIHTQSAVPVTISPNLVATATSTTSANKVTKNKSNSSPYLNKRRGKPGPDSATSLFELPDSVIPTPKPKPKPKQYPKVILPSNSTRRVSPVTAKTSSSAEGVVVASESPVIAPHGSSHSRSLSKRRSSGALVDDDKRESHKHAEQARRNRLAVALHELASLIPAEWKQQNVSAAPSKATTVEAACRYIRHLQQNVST
With `TGTCAAGCCAGACTGGACGTGTGGATGGGGGGCAAAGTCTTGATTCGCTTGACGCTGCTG` the fluorescence intensity was 4320 a.u.
The fluorescence intensity of `CTTCTGTAAATTTAACACGTGTTTTGACGCGCCCCGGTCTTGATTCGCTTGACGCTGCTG` is reported as 17700 a.u.
`AAAGCGGTAATTTTTCACGTGATATCAAATATCTATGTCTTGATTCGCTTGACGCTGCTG` has a fluorescence intensity of 12000 a.u.
The fluorescence intensity of `GTAACGACTCTCTATCAGGTGCTGTTATTGCAGCGAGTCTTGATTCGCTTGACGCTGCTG` is reported as 4660 a.u.
For `AATCTACGGTTCCAACACGCACACTTTCATCCTAGAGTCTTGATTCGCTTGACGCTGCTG`, the fluorescence intensity was 8150 a.u.
The fluorescence intensity of `CGCCTTAATCGCTCCGGCGTGGGTAAAGAAAGCAGAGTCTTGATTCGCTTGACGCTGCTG` is reported as 6300 a.u.
`AACCTTACAAAAAATCACATGACAACCTAACAAAATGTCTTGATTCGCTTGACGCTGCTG` has a fluorescence intensity of 6740 a.u.
With `TAAGATATACCTCACCACGTGAGATTATAGAAGCAAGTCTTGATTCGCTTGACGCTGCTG` the fluorescence intensity was 13600 a.u.

Other studies, line by line
The remaining activity of `Cn1cc(/C=C2\C(=O)Nc3ccc(S(N)(=O)=O)cc32)c2ccccc21` is reported as 104% (Serine/threonine-protein kinase PLK2 (PLK2, Homo sapiens, UniProt Q9NYY3); enzyme activity, inhibitor; 0.5 µM; baseline: control).

Excerpt of the above (study 1):
`ACCATTAA` gave an E-score of 0.304.
`GACCCCTC` gave an E-score of 0.277.
`ACCATCCC` gave an E-score of 0.255.
